Results collected from several papers.
A part holds a random share of what one study measured. Substitutions count along the parent as printed.

Block 1
Target: Fragile X messenger ribonucleoprotein 1, C-terminal low-complexity region (Fmr1, Mus musculus, UniProt P35922)
Method: RNA Bind-n-Seq
Molecule type: RNA
Matrix: in vitro
Concentration: 200 nM
Setting: whole 134-nt RNA, ends assumed
Together with: 150 mM KCl
Reference: input library
Direction: higher = stronger binding
All sequences stand within: GGGAGUUCUACAGUCCGACGAUC … UGGAAUUCUCGGGUGUCAAGG
Sequence	log2 enrichment
UAACUUUAGAGGAGGAUCUGAUGGAUAUGGCAGUGGACGUGGAUUUGGGGAUGGCUAUAAUGGGUAUGGAUGAGGACCUGGAGGUGGCAA	0.168
CAAGUCCUGUGCUACACAUCGUAUGUACCGAAUCGGGUUUGGGUUUGGGGUUUGGAAAGUAUUAUGUUACGCCGUUCGGAUCUGCACUUC	-0.0919
UGCCCCUGGUGGCAUGCGGGGAGGAAGAGGUGGCCUCAUGGAUCGUGGUGGUCCCGGUGGAAUGUUCAGAGGUGGCCGUGGUGGAGACAG	0.0128
CAAGUCCUGUGCUACACAUCGUAUGUACCGAAUCGGCCCGGGGCCCGGGCCCGGGGAAAGUAUUAUGUUACGCCGUUCGGAUCUGCACUU	-0.576
CACAGACAACACGCACCCACACAGACACAGAGGGAAGGGGUUGGGAUGGGGACAGGGUGCACAGCAGGGCGGGAUAGGACCCCAGCCCCU	1.3
AGUCCUGUGCUACACAUCGUAUGUACCGAAUCGGGAAAAAAAGGGUUUGGGUUUGGGAAAGUAUUAUGUUACGCCGUUCGGAUCUGCACU	0.197
ACCAUGCAGGCGGGCAUCUUUGGGAAGUGGGGCAAGGGGGGGAUAGGGAGGGGGGUAACACUUUGGGAACAGGUGGUCCCAGGUCGUUUC	0.952
UCAAGUCCUGUGCUACACAUCGUAUGUACCGAAUCGGGAGGGUUUUUGGGAGGGAAAGUAUUAUGUUACGCCGUUCGGAUCUGCACUUCC	1.21
AAUAACUGACGCUGCAUUUAAUUUUUUUGCCAGUUUAAAAUGUUUGUGUGUUUUUAUAGAUGAUUUUAACUGGUACAUAUUUUGAGUUAA	-1.11

Block 2
Target: CCNB2, cyclin fold, Cln2 fusion (human)
Method: yeast growth competition, sequencing
Matrix: yeast
Setting: weak parent motif
Reference: not given
Direction: higher = stronger binding
Parent: ORC1 docking peptide (human); PRARKRLELGNLG
Substitution	normalised enrichment score
K5C	0.128
N11K	0.424
K5A	0.228
R6T	0.564
G10Q	0.182
R6K	0.599
E8P	0.641

Block 3
Target: RNA binding protein fox-1 homolog 2, RRM domain, GST-SBP tag (RBFOX2, Homo sapiens, UniProt O43251-10, residues 100-194)
Method: RNA Bind-n-Seq
Molecule type: RNA
Matrix: in vitro
Concentration: 365 nM
Setting: natural RNA segment, single round, ends assumed
Reference: no-protein control
Direction: higher = stronger binding
All sequences stand within: GGGAGUUCUACAGUCCGACGAUC … UGGAAUUCUCGGGUGCCAA
Construct (chain): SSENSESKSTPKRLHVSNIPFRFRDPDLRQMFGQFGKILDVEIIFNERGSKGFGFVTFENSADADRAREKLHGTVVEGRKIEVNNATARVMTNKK
Sequence	RBNS enrichment (R)
AGUUUGACCUGUUUAGUGUAUUCUGGGCCGAGUCUCUGAAGCAGGAGCAGAGCACACUCCCGGGAUUCAGGGACAUGGUCCUCACAGCUCGGAAGUAGCUCUAGUCCUGC	0.236
ACCUGUCUGUAUUGCCGAAUCUGGCCCCAUGUUUUCUGUAUUCCUGUUUGUGGUAGGAGAUAACCAGUCUUGUUUGUUUCUUACAUGGCAUUCCUUUGUUGUCCUGGGAU	0.795
CUCCAUUUAGCUGGCCAAUCAGCCCAGGAGGGGCAGGUUCCCCGGGGCCGGCGCUAGGAUUUGCACUAAUGUUCCUCUCCCCGCGGGUGGGGGCGGGGAAAUUCAUAUCC	0.878
UUAUUCAGUCUGGUUCUUGGCUCCCCACUACUGUUUCUCUCAGCCUCUCAGAGCCUGAAACUUACCUCUUAGCUUUGGCUACAGGCAUGGCCUAGUACCUGAUGGAGCCU	0.263
UCUAUCAUAUGCCACUUUGACGAACUAAGUUGGAGUUUUUGUUUCAAGUCAACUUGUGUGAUAAGUUCUACUGCACCUAUCUUGGGAAGCAGGGAUACCCUCUUCUUUAG	0.3
AGGCAGGAGGAGAAGCAUGAAGAGAAAACCUGUUUGAGAAGUUUUGUUUUGUUUUGUUUUGCUUUUUAAUAAUUUUAGCACACAUCUGCUGACUCUCCUUCAACAUCCUC	4.3
GCUGGGAUGACAGGCGCACACCACCACGCCCAGCAAAUUUUUUGUAUUUUUAGUAGAAACGGGAUUUCACCUUGUUAGGCUGGUCUCGAACUCCUGACCUCAGGUGAUCC	0.322
CUGUUUCCCGGUUAUGUGUAGGGAACAGCAGAGUGAUGCACGAACUUUGAACAUUCGUUAUGGGGAAAACAUCCUUUAACUUCGGGGUCGUCUGCCAGAGCAGGGUCUGG	7.58

Other studies, line by line
Molecule	target	test	test system	conditions	how to read	measurement	result
PhoQ, residues 284 288 289 292 302 303 NLMGRA	PhoP, residues 12 14 15 18 19 NYFTV (Escherichia coli, UniProt P23836)	Sort-seq, measured: YFP reporter	E. coli	PhoQ-PhoP variant library, together with: 10 µM Mg2+	reference: high Mg2+ state, higher = stronger signaling	fold induction	13.6

Repeated from above (block 2):
Substitution	normalised enrichment score
G10Q	0.182
R6K	0.599
E8P	0.641
